Results of several laboratories.
Parts stem from different laboratories: compare values within a part only. Positions count from the first letter of the parent shown.

Block 1
Target: Fragile X messenger ribonucleoprotein 1, C-terminal low-complexity region (Fmr1, Mus musculus, UniProt P35922)
Method: RNA Bind-n-Seq
Molecule type: RNA
Sample: in vitro
Tested at: 200 nM
Notes: whole 134-nt RNA, ends assumed
With: 150 mM KCl
Relative to: input library
Reading: higher = stronger binding
All sequences stand within: GGGAGUUCUACAGUCCGACGAUC … UGGAAUUCUCGGGUGUCAAGG
| Sequence | log2 enrichment |
| --- | --- |
| UGUGCUACACAUCGUAUGUACCGAAUCGGGGAAAAAAAGGGAAAAAAAGGGGAAAAAAAGGGAAAGUAUUAUGUUACGCCGUUCGGAUCU | -0.379 |
| UCCUGUGCUACACAUCGUAUGUACCGAAUCAAAUUUUUUUAAAUUUUUAAAUUUUUAAAAAAGUAUUAUGUUACGCCGUUCGGAUCUGCA | -0.493 |
| GUGCUGGCUGGCCACGGUCACCUGUAUUCCCGCAUCCCAGGCCUGCUCAGCCCCCAUCCCCUGCUGCAGCUGAGCUACACGGCCACCGAC | 0.561 |
| UCCUCAAGUCCUGUGCUACACAUCGUAUGUACCGAAUCGGUGGAAAGGUGGAAAGUAUUAUGUUACGCCGUUCGGAUCUGCACUUCCAGC | -0.321 |
| CAAGUCCUGUGCUACACAUCGUAUGUACCGAAUCGGAAAAAAAGGAAAAAGGAGGAAAGUAUUAUGUUACGCCGUUCGGAUCUGCACUUC | -0.664 |
| AGUCCUGUGCUACACAUCGUAUGUACCGAAUCGGGGAAAAGGGGAAAAGGGAAAAGGGAAAGUAUUAUGUUACGCCGUUCGGAUCUGCAC | 0.392 |
| AGUCCUGUGCUACACAUCGUAUGUACCGAAUCGGAAAAAGGGGAAAAAGGAAAAAGGGAAAGUAUUAUGUUACGCCGUUCGGAUCUGCAC | -0.601 |
| CAAGUCCUGUGCUACACAUCGUAUGUACCGAAUCGGGGCCCGGGCCCGGCCCGGGAAAGUAUUAUGUUACGCCGUUCGGAUCUGCACUUC | -0.618 |

Block 2
Target: ABI1, truncated, D143A, DHFR fusion (Arabidopsis thaliana)
Method: DHFR PCA, deep sequencing
Sample: yeast
Notes: methotrexate growth selection, single substitutions
With: (+)-ABA 1.4 µM
Relative to: wild-type fitted maximum
Reading: higher = stronger binding
Starting sequence: PYL1, truncated, DHFR fusion (Arabidopsis thaliana); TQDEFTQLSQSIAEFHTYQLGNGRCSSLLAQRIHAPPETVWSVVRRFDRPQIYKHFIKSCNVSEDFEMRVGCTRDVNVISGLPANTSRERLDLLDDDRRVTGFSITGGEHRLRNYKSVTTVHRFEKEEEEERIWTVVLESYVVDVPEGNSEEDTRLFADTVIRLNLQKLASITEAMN
| Substitution | relative binding score [%] |
| --- | --- |
| S140I | -8.87 |
| D96G | 7.42 |
| V161W | 59.9 |
| I162C | 17.8 |
| H16W | -5.42 |
| R132M | 62.3 |
| T173C | 73.7 |
| T39L | 68 |

Block 3
Target: RING finger protein unkempt homolog, zinc fingers 1-6, GST-SBP tag (UNK, Homo sapiens, UniProt Q9C0B0, residues 30-357)
Sequence of UniProt Q9C0B0 (30-357, looked up): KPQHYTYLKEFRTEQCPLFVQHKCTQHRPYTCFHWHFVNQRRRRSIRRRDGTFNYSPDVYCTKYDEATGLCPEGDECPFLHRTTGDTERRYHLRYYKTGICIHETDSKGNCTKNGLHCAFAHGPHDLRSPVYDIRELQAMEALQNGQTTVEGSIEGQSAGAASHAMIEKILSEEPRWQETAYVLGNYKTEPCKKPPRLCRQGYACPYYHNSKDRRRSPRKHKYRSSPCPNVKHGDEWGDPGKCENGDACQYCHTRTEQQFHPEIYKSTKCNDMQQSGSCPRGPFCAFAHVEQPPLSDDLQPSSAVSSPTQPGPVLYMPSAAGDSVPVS
Method: RNA Bind-n-Seq
Molecule type: RNA
Sample: in vitro
Tested at: not given
Notes: RNA with constant flanks, human and mouse sites, ends assumed
Relative to: input RNA pool
Reading: higher = stronger binding
All sequences stand within: GGGAGUUCUACAGUCCGACGAUC … CAACAGAGGAUUGAGCAUCA
| Sequence | bound/input enrichment |
| --- | --- |
| AUUUUUUUUUUUUUUUUUUUAAGAAUAUCUGUAAUGGUACUGACUUUGCUUGCUUUGAAGUAGCUCUUUUUUUUUUUUUUUUUUUUUUUUUGCAGUAACUGUUUUUUAAGUCUCUCGUAG | 8.27 ratio |
| GAGCAGAAACACACCCUCCAGCAGCACCAGGAAACGCCGAAGAAGAAAACAGGCUAUGGUGAAAUAAACGGUAAUGCUGGAGAAAGAGAAAUAUCUUUAAAGAGCCUCAGUUCUGAUGAA | 0.105 ratio |
| CUUCAAACCCCAGCUUCCACUUUCCUUGCCAUCUUCCCUCCUGGGCAUUGUUUUGCUGUCAUUAGAAGGAAACCAUUUUUUUUUUUCCCAAUUUACCCUGUUUAACCUGUGAGAGUCUCU | 2.1 ratio |
| CUGAGCCAGCUAGACCAGCGCUUUUCAGAGAAUUACUCUACCCAUAGCAGUCCUCUGGAUAGUAUUUAUUACCACCGAGAGCUUCUCUGCUAUUCUCUGGAUGGACUUCGUGUAGAUCUA | 0.458 ratio |
| GUCCAAACACAAUGUGACUGUUGUUUUUUAUACUGGCAUCGAGCUGUCUUCCCAAUUUAUUUAGAUGAUGUAUAUGAAAAUGCUGUUGAUGCAGCCAGAUUACAUUACAUGUUCAGUGCU | 5.08 ratio |
| AUUUUGUGCCAGUCACUCCUAGAAAAUCUAGACAAGCUUCCUGGAGAUUCACGAACAAGAAUAGGAUUCAUGACCUUUGAUAGCACUAUUCAUUUCUACAAUUUACAAGAAGGAUUAUCA | 0.371 ratio |
| AUUGCUGUCACCACCAUUGACAAUAUUGGUGCUGGUGUGAUCCAGCCAGGCCGAGGCUUUGUCCUUUAUCCAGUUAAGUACAAGGCCAUUGUUUUCCGGCCAUUUAAAGGGGAGGUCGUG | 0.134 ratio |
| CUCACGGAACAUAACAUCUGUGAAAUCAAUGGACAGAAUGUCAUUGGAUUGAAGGACUCUCAAAUUGCAGACAUACUGUCAACAUCUGGGACUGUAGUUACUAUUACAAUCAUGCCUGCU | 0.522 ratio |

Further values, each from its own experiment
| Molecule | target | test | system | conditions | quantity | result |
| --- | --- | --- | --- | --- | --- | --- |
| NYNGLLSSI | HLA class I histocompatibility antigen, A alpha chain, allele A*25:01 (Homo sapiens, UniProt P04439) | peptide-MHC binding | peptide | concentration not given | binding | inactive |
